Measured values gathered from unrelated publications.
± gives the spread as reported.

`CC(C)[C@H](NC(=O)[C@@H]1CCCN1C(=O)[C@H](CCCNC(=N)N)NC(=O)[C@H](CS)NC(=O)[C@H](Cc1c[nH]c2ccccc12)NC(=O)[C@H](CCCNC(=N)N)NC(=O)[C@@H](Cc1ccccc1)NC(=O)[C@H](Cc1c[nH]cn1)NC(=O)[C@H](CCC(=O)O)NC(=O)[C@H](CS)NC(=O)[C@H](CS)NC(=O)[C@@H]1CC(=O)N[C@@H](CCCNC(=N)N)C(=O)NCC(=O)N[C@@H](CC(=O)O)C(=O)N[C@H](Cc2ccc(O)cc2)C(=O)N1)C(N)=O` [technetium-99m labelled] gave a tissue uptake of 0.75 ± 0.21 %ID/g (C57 mice B16/F1 melanoma female, spleen; iv, 2 h, added: NDP-MSH 10 µg co-injected).
The tissue uptake of `O=C([O-])CN1CCN(CC(=O)[O-])CCN(CC(=O)[O-])CCN(CC(=O)[O-])CC1.[64Cu+2]` is reported as 1.01 %ID/g (healthy athymic nude mice, small intestine; intravenous, 1 h).
`O=C([O-])CN1CCN(CC(=O)[O-])CCN(CC(=O)NCCc2ccc3c(c2)C2C=CCC2C(c2cc4c(cc2Br)OCO4)N3)CCN(CC(=O)[O-])CC1.[111In+3]` (stereo not drawn) gave a tissue uptake of 1.5 ± 0.21 %ID/g (mice with Hec50 tumour xenograft, urinary bladder; 1 h).
The tissue uptake of `CCCC[C@@H]1NC(=O)[C@@H](NC(=O)[C@H](CCC(=O)O)NC(=O)CNC(=O)CN2CCN(CC(=O)O)CCN(CC(=O)O)CCN(CC(=O)O)CC2)CCCCNC(=O)C[C@@H](C(N)=O)NC(=O)[C@H](C(C)C)NC(=O)[C@@H]2CCCN2C(=O)[C@H](CCCNC(=N)N)NC(=O)CNC(=O)[C@H](Cc2c[nH]c3ccccc23)NC(=O)[C@H](CCCNC(=N)N)NC(=O)[C@@H](Cc2ccccc2)NC(=O)[C@H](Cc2c[nH]cn2)NC(=O)[C@H](CCC(=O)O)NC1=O` [gallium-67 labelled] is reported as 0.12 ± 0.08 %ID/g (C57 mice, B16/F10 lung metastatic melanoma, heart; intravenous, 0.037 MBq, 4 h).
`CCCC[C@H](NC(=O)CNC(=O)CNC(=O)CN1CCN(CC(=O)O)CCN(CC(=O)O)CC1)C(=O)N[C@H]1CC(=O)NCCCC[C@@H](C(N)=O)NC(=O)[C@H](Cc2c[nH]c3ccccc23)NC(=O)[C@H](CCCNC(=N)N)NC(=O)[C@@H](Cc2ccccc2)NC(=O)[C@H](Cc2c[nH]cn2)NC1=O` [gallium-67 labelled] gave a tissue uptake of 0.39 ± 0.17 %ID/g (female C57 mice, B16/F1 melanoma, heart; intravenous, 0.037 MBq, 4 h).
For `N=C(N)NCCC[C@@H]1NC(=O)[C@H](CCCCNC(=O)CON=C[C@H](F)[C@@H](O)[C@H](O)[C@H](O)CO)NC(=O)[C@@H](Cc2ccc(O)cc2)NC(=O)[C@H](CC(=O)O)NC(=O)CNC1=O` [fluorine-18 labelled], the tissue uptake was 0.19 ± 0.16 %ID/g (nude mice U-87 MG tumour, spleen; intravenous, 0.5 h).
`O=C([O-])c1cccc(CN(CCN(Cc2cn(Cc3ccccc3)nn2)Cc2cccc(C(=O)[O-])n2)Cc2cn(Cc3ccccc3)nn2)n1.[64Cu+2]` gave a tissue uptake of 5.11 %ID/g (healthy athymic nude mice, stomach; intravenous, 4 h).
`CCCC[C@H](NC(=O)CNC(=O)CNC(=O)CN1CCN(CC(=O)O)CCN(CC(=O)O)CCN(CC(=O)O)CC1)C(=O)N[C@H]1CC(=O)NCCCC[C@@H](C(N)=O)NC(=O)[C@H](Cc2c[nH]c3ccccc23)NC(=O)[C@H](CCCNC(=N)N)NC(=O)[C@@H](Cc2ccccc2)NC(=O)[C@H](Cc2c[nH]cn2)NC1=O` [gallium-67 labelled] gave a tissue uptake of 0.97 ± 0.91 %ID/g (female C57 mice, B16/F1 melanoma, blood; intravenous, 0.037 MBq, 2 h).
The tissue uptake of `NC12CNCCNCC(NCc3ccc(CNC(=O)CCCC(=O)NCc4ccc(-c5nncnn5)cc4)cc3)(CNCCNC1)CNCCNC2.[64Cu+2]` is reported as 0.07 ± 0.01 %ID/g (biodistribution; healthy athymic nude mice, large intestine; 1 h p.i.).
`CCCC[C@H](NC(=O)CN1CCC(NC(=O)CN2CCN(CC(=O)O)CCN(CC(=O)O)CCN(CC(=O)O)CC2)CC1)C(=O)N[C@H]1CC(=O)NCCCC[C@@H](C(N)=O)NC(=O)[C@H](Cc2c[nH]c3ccccc23)NC(=O)[C@H](CCCNC(=N)N)NC(=O)[C@@H](Cc2ccccc2)NC(=O)[C@H](Cc2c[nH]cn2)NC1=O` [gallium-68 labelled] gave a tissue uptake of 0.2 %ID/g (C57BL/6J mice male B16-F10 tumour, muscle; 1 h post injection, unblocked).
`CC(C)[C@H](NC(=O)[C@@H]1CCCN1C(=O)[C@H](CCCNC(=N)N)NC(=O)[C@H](CS)NC(=O)[C@H](Cc1c[nH]c2ccccc12)NC(=O)[C@H](CCCNC(=N)N)NC(=O)[C@@H](Cc1ccccc1)NC(=O)[C@H](Cc1c[nH]cn1)NC(=O)[C@H](CCC(=O)O)NC(=O)[C@H](CS)NC(=O)[C@H](CS)NC(=O)CNC(=O)[C@@H]1CC(=O)N[C@@H](CCCNC(=N)N)C(=O)NCC(=O)N[C@@H](CC(=O)O)C(=O)N[C@H](Cc2ccc(O)cc2)C(=O)N1)C(N)=O` [technetium-99m labelled] gave a tissue uptake of 2.41 ± 0.42 %ID (C57 mice B16/F1 melanoma female, intestines; iv, 0.037 MBq, 2 h).
The tissue uptake of `CN1C(=O)[C@@H](Cc2ccc(O)c(I)c2)NC(=O)CNC(=O)[C@H](Cc2ccc3ccccc3c2)NC(=O)[C@H](CCCNC(=N)N)NC(=O)[C@H]1CCCNC(=O)c1ccc(CNC(=O)CN2CCN(CC(=O)O)CCN(CC(=O)O)CCN(CC(=O)O)CC2)cc1` [lutetium-177 labelled] is reported as 0.04 ± 0.005 %ID/g (item: 177Lu radioactivity; female CB-17 SCID mice, Daudi xenograft, muscle; intravenous, 0.16 nmol per mouse, 48 h).
